Experimental data from different studies.
Each line is one published result; not all experiments were run side by side. Several values in a cell are separate wells, animals, samples, runs or records. ± gives the spread as reported. Converted amounts (≈) assume the structure as drawn.

Substance	target or system	test	system	conditions	how to read	endpoint	result
COc1ccc(-c2nc3ccccc3s2)cc1OCc1nnc(-c2ccc(N(C)C)cc2)o1	–	hind limb tonic extension	albino mouse, MES-induced seizure	ip, 0.5 h	–	minimal effective dose	100 mg/kg
LRKLRKRLLRDWLKAFYDKVAEKLKEAF (N-acetyl, C-amide)	–	Oil Red O en face	peptide, female apoE-null mice, aorta	retro-orbital, 100 µg three times weekly, 6 weeks	relative to: control group	aortic lesion area	decreased
COc1cc2nccc(Oc3ccc(NC(=O)c4cc5c(n(-c6ccccc6)c4=O)CCCC5=O)nc3)c2cc1OC	–	immunohistochemistry, measured: cleaved caspase-3	MOLM-13 luc/gfp xenograft, mouse AML xenograft, spleen	oral feed, 0.013% in feed	relative to: control food	apoptotic cells	> 2 fold
O=C1c2c(O)cc(O)cc2O[C@H](c2cc(O)c(O)c(O)c2)[C@H]1O	–	–	rat, intermittent ethanol access	oral in drinking fluid, 0.05 mg/mL, end of week 8, from week 7	–	ethanol intake	1.2 ± 0.2 g/kg/day
COc1ccc(-c2nc3ccccc3s2)cc1OCc1nnc(-c2ccc(N)cc2)o1	–	seizure protection	albino mouse, scPTZ-induced seizure	ip, 0.5 h	–	minimal effective dose	30 mg/kg
CC(C)[C@H](NC(=O)[C@@H]1CCCN1C(=O)[C@H](CCCNC(=N)N)NC(=O)[C@H](CS)NC(=O)[C@H](Cc1c[nH]c2ccccc12)NC(=O)[C@H](CCCNC(=N)N)NC(=O)[C@@H](Cc1ccccc1)NC(=O)[C@H](Cc1c[nH]cn1)NC(=O)[C@H](CCC(=O)O)NC(=O)[C@H](CS)NC(=O)[C@H](CS)NC(=O)[C@H](CCCCN)NC(=O)[C@@H]1CC(=O)N[C@@H](CCCNC(=N)N)C(=O)N[C@@H](C)C(=O)N[C@@H](CC(=O)O)C(=O)N[C@H](Cc2ccc(O)cc2)C(=O)N1)C(N)=O [technetium-99m labelled]	–	–	C57 mice, skin	intravenous, 0.037 MBq, 0.5 h	–	tissue uptake	4.71 ± 0.49 %ID/g
COc1ccc(-c2nc3ccccc3s2)cc1OCc1nnc(-c2cc([N+](=O)[O-])cc([N+](=O)[O-])c2O)o1	–	hind limb tonic extension	albino mouse, MES-induced seizure	ip, 4.0 h	–	minimal effective dose	30 mg/kg
Cc1c(OCC(F)(F)F)ccnc1C[S@@+]([O-])c1nc2ccccc2[nH]1	–	–	healthy human	oral, single dose, 60 mg, modified release, 12 to 24 h, crossover vs esomeprazole	–	mean intragastric pH	4.5
COc1ccc(-c2nc3ccccc3s2)cc1OCc1nnc(-c2c(OC)cccc2OC)o1	–	seizure protection	albino mouse, scPTZ-induced seizure	ip, 0.5 h	–	minimal effective dose	100 mg/kg
CS/C(S)=N/CCCC[S+](C)[O-] (racemic)	–	RT-PCR, measured: Gstp1	rat, colon	oral gavage, 200 mg/kg, 96 h, dosed for four days	relative to: vehicle	mRNA fold change	2.52
CC(C)(C)c1nn(-c2cc(OCc3cn(Cc4ccc(Br)cc4)nn3)c(Cl)cc2Cl)c(=O)o1	Toxoplasma gondii	intracellular parasite growth, luminescence	HFF, wild type, NanoLuc reporter	96 h	–	IC50	< 2.5 µM and 2.4 µM
Cc1c2ccccc2c(C)c2c1ccc1ccccc12	–	inducer	female rat, liver	oral, 10 mg, 24 h, sesame oil vehicle	–	menadione reductase activity	50.7 enzyme units
CC[C@H]1OC(=O)[C@H](C)[C@@H](O[C@H]2C[C@@](C)(OC)[C@@H](O)[C@H](C)O2)[C@H](C)[C@@H](O[C@@H]2O[C@H](C)C[C@H](N(C)C)[C@H]2O)[C@](C)(O)C[C@@H](C)/C(=N\OCOCCOC)[C@H](C)[C@@H](O)[C@]1(C)O	–	cytochrome c release, ELISA	BALB/cByJ female mouse liver mitochondria	30 min	relative to: alamethicin maximal release	EC20	> 400 µM
Cn1c(-c2ccc(C(N)=O)cc2F)nnc1C(C)(C)Oc1c(F)cc(Cl)cc1F	–	–	healthy young Japanese subjects, plasma	oral, 10 mg once daily, day 18, 14 days dosing	–	Cmax median	172 ng/mL
tissue plasminogen activator	–	measured: platelets	rat MCAO stroke model, brain	dose not given, 24 h, dosed 4 h after MCAO	relative to: saline	microvascular thrombosis	increased
COc1ccc(-c2nc3ccccc3s2)cc1OCc1nnc(-c2ccc(Br)cc2)o1	–	hind limb tonic extension	albino mouse, MES-induced seizure	ip, 0.5 h	–	minimal effective dose	300 mg/kg
Cc1cnc(-c2ccnc(C(C)(C)O)n2)cc1-n1c(C)cc(OCc2ncc(F)cc2F)c(Cl)c1=O	–	IL-8 release, inhibitor	human, whole blood, ex vivo	plasma concentration, with: LPS	–	IC80	0.0388 µg/mL (≈ 0.0755 µM)
CCc1c2ccccc2c(CC)c2c1ccc1ccccc12	–	adrenal apoplexy prevention	rat	oral, with: 7,12-DMBA 5 mg i.v.	–	non-protective dose	0.5 mg
insulin aspart	–	euglycaemic clamp	type 1 diabetes patients	subcutaneous, 0.2 U/kg single, 0-60 min, antibody quartile 3, 6.65-15.68 %B/T	–	AUC glucose infusion rate	119 mg/kg
Cc1c(C)c2c(c(C)c1O)CCC(C)(COc1ccc(CC3SC(=O)NC3=O)cc1)O2 (stereo not drawn)	–	cytochrome c release, ELISA	BALB/cByJ female mouse liver mitochondria	30 min	relative to: alamethicin maximal release	EC20	> 400 µM
C[C@H]1C[C@H]2CSC(N)=N[C@@]2(c2nc(NC(=O)c3ccc(OC(F)F)cn3)cs2)CO1	–	measured: CSF Aβx-38	healthy adults	275 mg once daily, 14 days, day 15	relative to: placebo-adjusted baseline	change from baseline	-88.7%

A few entries again:
Substance	target or system	test	system	conditions	how to read	endpoint	result
COc1ccc(-c2nc3ccccc3s2)cc1OCc1nnc(-c2ccc(N(C)C)cc2)o1	–	hind limb tonic extension	albino mouse, MES-induced seizure	ip, 0.5 h	–	minimal effective dose	100 mg/kg
LRKLRKRLLRDWLKAFYDKVAEKLKEAF (N-acetyl, C-amide)	–	Oil Red O en face	peptide, female apoE-null mice, aorta	retro-orbital, 100 µg three times weekly, 6 weeks	relative to: control group	aortic lesion area	decreased
